Measured values gathered from unrelated publications.
Protocols differ between the studies behind these lines.
Cell line: MDA-MB-468

CC(C)(C)OC(=O)N1CCN(CC(OCc2ccc(Cl)cc2)c2ccc(Cl)cc2Cl)CC1 (stereo not drawn)  IC50 (cell growth or viability, MTT; 24 h): 22 µM
CC(C)c1ccc(N(C)c2ccc3c(c2)OCC[C@H]3CNc2cnccc2C(=O)O)cc1  IC50 (cell growth or viability, ATP luminescence; 7 days): ≥ 10 µM
CC(C)NCCCn1c(Sc2cc(Cl)cc(I)c2)nc2c(N)ncnc21  IC50 (cell growth or viability, resazurin; 72 h): 0.12 µM
C1=[N+]2CCCC[N+]3=Cc4ccc5[n]4[Au-]23[n]2c1ccc2-c1nc2ccccc2nc1-5.F[P-](F)(F)(F)(F)F  IC50 (NCI60 five-dose screen): 2.6 µM
CC(C)NCCCn1c(Sc2cc(Cl)cc(Cl)c2)nc2c(N)nc(Cl)nc21  IC50 (cell growth or viability, resazurin; 72 h): 0.16 µM
CCOc1cncc(-c2ccc(NC(=O)C3(c4ccnc(NS(=O)(=O)C5CC5)n4)CCOCC3)nc2)n1  IC50 (cell growth or viability, ATP luminescence; 72 h): 1.94 µM
Cc1ccnc(-c2cc(C(=O)O)ccn2)c1.F[P-](F)(F)(F)(F)F.F[P-](F)(F)(F)(F)F.[Ru+2].c1ccc(-c2ccccn2)nc1.c1ccc(-c2ccccn2)nc1  IC50 (cell viability; 48 h, light irradiation 2.5 min): > 100 µM
Clc1ccc(COC(Cn2cnc3ccccc32)c2ccc(Cl)cc2Cl)cc1 (stereo not drawn)  IC50 (cell growth or viability, MTT; 24 h): 48.7 µM
Cc1cnc(Nc2ccc3c(c2)CCN(C(=O)/C=C/C(=O)c2ccc(Cl)cc2)C3)nc1-c1cnn(C(C)C)c1  IC50 (cell growth or viability, MTT; 48 h): 0.48 µM
O=C(c1ccc(Cl)cc1Cl)N1CCN(CC(OCc2ccc3ccccc3c2)c2ccc(Cl)cc2Cl)CC1 (stereo not drawn)  IC50 (cell growth or viability, MTT; 24 h): 38.4 µM
Nc1ncnc2c1nc(Sc1cc(Cl)cc(Cl)c1)n2CCCNCC(F)(F)F  IC50 (cell growth or viability, resazurin; 72 h): > 10 µM
Clc1ccc(C(Cn2ccnc2)OCc2ccc3ccccc3c2)c(Cl)c1 (stereo not drawn)  IC50 (cell growth or viability, MTT; 24 h): 37.6 µM
COC(=O)N1c2ccc3c(nc(Cc4ccccc4)n3[C@@H]3CCC[C@@H](C(=O)O)C3)c2CC[C@@H]1C  IC50 (cell growth or viability, ATP luminescence; 10 days): 3.13 µM
Clc1ccc(C(Cn2cnc3ccccc32)OCc2ccc(Br)cc2)c(Cl)c1 (stereo not drawn)  IC50 (cell growth or viability, MTT; 24 h): 45.4 µM
CC(C)NCCCn1c(Sc2ccc(Cl)cc2Cl)nc2c(N)ncnc21  IC50 (cell growth or viability, resazurin; 72 h): > 10 µM

A few entries again:
Clc1ccc(COC(Cn2cnc3ccccc32)c2ccc(Cl)cc2Cl)cc1 (stereo not drawn)  IC50 (cell growth or viability, MTT; 24 h): 48.7 µM
Cc1cnc(Nc2ccc3c(c2)CCN(C(=O)/C=C/C(=O)c2ccc(Cl)cc2)C3)nc1-c1cnn(C(C)C)c1  IC50 (cell growth or viability, MTT; 48 h): 0.48 µM
